Values quoted from earlier work, collected from citations in different studies.
Each line is one published result; not all experiments were run side by side. Numbers after ± are the reported error.

Cc1cn(C2C=CC(COP(=O)(O)OP(=O)(O)OP(=O)(O)O)O2)c(=O)[nH]c1=O (centres unmarked)  EC50 (HIV-2; viral replication; CEM/0, ROD): 400 ± 260 nM
CC(C)n1nc(-c2cnc3cc(OC4CC4)ccc3c2)c(C(N)=O)c1N  EC50 (Toxoplasma gondii): 420 nM
O=C(Nc1cc2nc(-c3ccc(F)c(F)c3)cn2cn1)N1CC[C@H](F)C1  EC50 (Trypanosoma brucei): 20 nM
CN1CCN(c2ccc(-c3cc(-c4ccc(C5NC(=O)c6ccccc6N5)cc4)nc(N)n3)cc2)CC1 (centres unmarked)  EC50 (Leishmania donovani; intracellular amastigotes): 650 nM
CC(=O)O[C@H]1C2=C(C(=O)C(O)=C(C(C)C)C2=O)[C@@]2(C)CCCC(C)(C)[C@@H]2[C@@H]1O  GI50 (MCR5; cell growth): 5000 to 10000 nM
CNS(=O)(=O)c1sc(N(C)C(=O)Nc2ccc(-c3ccccc3)cc2)nc1C  EC50 (herpes simplex virus 2; viral replication): 5 nM
O=C(CCC(CCC(=O)N[C@@H](Cc1ccc(O)cc1)C(=O)O)(CCC(=O)N[C@@H](Cc1ccc(O)cc1)C(=O)O)NC(=O)CCOCC(COCCC(=O)NC(CCC(=O)N[C@@H](Cc1ccc(O)cc1)C(=O)O)(CCC(=O)N[C@@H](Cc1ccc(O)cc1)C(=O)O)CCC(=O)N[C@@H](Cc1ccc(O)cc1)C(=O)O)(COCCC(=O)NC(CCC(=O)N[C@@H](Cc1ccc(O)cc1)C(=O)O)(CCC(=O)N[C@@H](Cc1ccc(O)cc1)C(=O)O)CCC(=O)N[C@@H](Cc1ccc(O)cc1)C(=O)O)COCCC(=O)NC(CCC(=O)N[C@@H](Cc1ccc(O)cc1)C(=O)O)(CCC(=O)N[C@@H](Cc1ccc(O)cc1)C(=O)O)CCC(=O)N[C@@H](Cc1ccc(O)cc1)C(=O)O)N[C@@H](Cc1ccc(O)cc1)C(=O)O  EC50 (HIV-2; viral cytopathicity; MT-4, ROD): 20000 ± 15000 nM
Cc1cc(C#N)cc(C)c1Oc1ccnc(NC2CCN(CC(=O)N3CCOCC3)CC2)n1  EC50 (HIV-1; viral replication; wild type): 141 nM
COC(=O)NC(C(=O)NN(Cc1ccc(-c2cc3ccccc3s2)cc1)CC(O)(Cc1ccccc1)C(=O)NC1c2ccccc2CC1O)C(C)(C)C (centres unmarked)  EC50 (HIV-1; viral replication; MT-4): > 10000 nM
Cc1nc(N(C)C(=O)Cc2ccc(-c3ccccc3)cc2)sc1S(=O)(=O)NCCO  EC50 (herpes simplex virus 2; viral replication): 5 nM
CCOP(=O)(CCCn1cc(Cn2c(=O)n(C(=O)c3ccccc3)c(=O)c3ccccc32)nn1)OCC  EC50 (Felid alphaherpesvirus 1; viral replication): 24000 nM
CNC(=O)C(NC(=O)C(O)(Cc1ccccc1)CN(Cc1ccc(Br)cc1)NC(=O)C(NC(=O)OC)C(C)(C)C)C(C)(C)C (centres unmarked)  EC50 (HIV-1; viral replication; MT-4): > 10000 nM
O=C(Nc1nc2cc(F)c(F)cc2s1)c1sc(Br)cc1Br  EC50 (Norovirus; antiviral activity): 530 nM
Fc1cccc(COc2ccc(Nc3ncnc4ccc(-c5cccc(N6CCOCC6)c5)cc34)cc2Cl)c1  EC50 (Leishmania major; intracellular amastigotes): > 8000 nM
Cc1cc(/C=C/C#N)cc(C)c1-n1cnc2cnc(Nc3ccc(C#N)cc3)nc21  EC50 (HIV-1 wild type; viral replication, single-round infection): 0.5 ± 0.1 nM
Cc1nc(N(C)C(=O)Nc2ccc(-c3ccccc3)cc2)sc1S(=O)(=O)NC1CC1  EC50 (herpes simplex virus 1; viral replication): 20 nM
COCCOCCOCCOCCC(=O)NCc1cc(CNC(=O)CCOCCOCCOCCOC)cc(-c2cc3cc4nc(c(OC)c5[nH]c(cc6nc(cc2[nH]3)CC6(C)C)cc5-c2cc(CNC(=O)CCOCCOCCOCCOC)cc(CNC(=O)CCOCCOCCOCCOC)c2)CC4(C)C)c1  Qy absorption maximum (PBS; room temperature): 727 nm
Cc1nc(N(C)C(=O)Cc2ccc(-c3ccccc3)cc2)sc1S(N)(=O)=O  EC50 (herpes simplex virus 2; viral replication): 5 nM
CCC(=O)O[C@@H]1[C@@H](OC(C)=O)C2=C(C(=O)C(O)=C(C(C)C)C2=O)[C@@]2(C)CCCC(C)(C)[C@H]12  GI50 (HL-60; cell growth): 10000 to 30000 nM
Cc1nc(N(C)C(=O)Cc2ccc(-c3ccccc3)cc2)sc1S(=O)(=O)NCC(F)(F)F  EC50 (herpes simplex virus 1; viral replication): 50 nM
CC(C)c1ccc(O)c(=O)c(O)c1  EC50 (hepatitis B virus; viral replication): 1000 nM
Cc1ccc(F)cc1-c1ccc(CC(=O)N(C)c2nc(C)c(S(N)(=O)=O)s2)cc1  EC50 (herpes simplex virus 1; viral replication): 100 nM
COc1ccc(NC(=O)N2CCCCN3[C@H](CN(C)C)[C@H](c4ccc(C#Cc5ccccc5)cc4)[C@@H]3C2)cc1  EC50 (Toxoplasma gondii; parasite growth; RH-FLuc): 53 nM

Repeated from above:
O=C(Nc1cc2nc(-c3ccc(F)c(F)c3)cn2cn1)N1CC[C@H](F)C1  EC50 (Trypanosoma brucei): 20 nM
CN1CCN(c2ccc(-c3cc(-c4ccc(C5NC(=O)c6ccccc6N5)cc4)nc(N)n3)cc2)CC1 (centres unmarked)  EC50 (Leishmania donovani; intracellular amastigotes): 650 nM
CC(=O)O[C@H]1C2=C(C(=O)C(O)=C(C(C)C)C2=O)[C@@]2(C)CCCC(C)(C)[C@@H]2[C@@H]1O  GI50 (MCR5; cell growth): 5000 to 10000 nM
